Measurements of several laboratories.
Lines come from different studies, so protocols differ.
H2-D1 17: H-2 class I histocompatibility antigen, D-B alpha chain, 17 (H2-D1, Mus musculus, UniProt P01899)
Tumor necrosis factor receptor superfamily member 9/Nectin-4: Tumor necrosis factor receptor superfamily member 9/Nectin-4 (Homo sapiens, UniProt Q07011+Q96NY8)
Chain of UniProt Q07011 (whole entry, looked up): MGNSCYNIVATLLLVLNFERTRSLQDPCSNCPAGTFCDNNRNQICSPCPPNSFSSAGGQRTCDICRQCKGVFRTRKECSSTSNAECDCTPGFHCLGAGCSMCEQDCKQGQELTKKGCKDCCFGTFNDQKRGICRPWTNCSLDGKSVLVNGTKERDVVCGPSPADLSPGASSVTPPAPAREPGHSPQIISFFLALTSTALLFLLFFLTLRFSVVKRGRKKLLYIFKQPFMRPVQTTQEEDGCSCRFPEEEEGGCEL
Chain of UniProt Q96NY8 (whole entry, looked up): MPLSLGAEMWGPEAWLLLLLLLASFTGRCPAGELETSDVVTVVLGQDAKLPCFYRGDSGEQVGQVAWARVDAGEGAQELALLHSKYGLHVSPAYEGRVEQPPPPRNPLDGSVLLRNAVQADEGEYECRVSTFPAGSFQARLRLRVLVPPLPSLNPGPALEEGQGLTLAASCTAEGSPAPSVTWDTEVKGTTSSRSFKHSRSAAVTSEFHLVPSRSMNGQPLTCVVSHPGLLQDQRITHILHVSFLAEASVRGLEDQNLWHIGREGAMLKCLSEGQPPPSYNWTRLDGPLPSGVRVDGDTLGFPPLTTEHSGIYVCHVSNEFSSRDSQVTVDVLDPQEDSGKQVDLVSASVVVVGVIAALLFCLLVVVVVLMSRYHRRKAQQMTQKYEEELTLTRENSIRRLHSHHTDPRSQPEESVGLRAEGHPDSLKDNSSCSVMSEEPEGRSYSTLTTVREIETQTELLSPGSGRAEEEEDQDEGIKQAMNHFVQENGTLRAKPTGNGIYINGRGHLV
sdiA: Regulatory protein SdiA (sdiA, Escherichia coli, UniProt P07026)
Chain of UniProt P07026 (whole entry, looked up): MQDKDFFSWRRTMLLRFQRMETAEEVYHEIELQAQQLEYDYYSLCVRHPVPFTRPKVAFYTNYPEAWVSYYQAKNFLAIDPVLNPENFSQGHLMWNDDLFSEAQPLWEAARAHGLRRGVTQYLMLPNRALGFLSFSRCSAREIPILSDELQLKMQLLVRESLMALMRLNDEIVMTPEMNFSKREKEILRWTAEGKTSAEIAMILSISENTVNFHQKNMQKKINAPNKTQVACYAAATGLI
Chain of UniProt Q9Y5L0 (whole entry, looked up): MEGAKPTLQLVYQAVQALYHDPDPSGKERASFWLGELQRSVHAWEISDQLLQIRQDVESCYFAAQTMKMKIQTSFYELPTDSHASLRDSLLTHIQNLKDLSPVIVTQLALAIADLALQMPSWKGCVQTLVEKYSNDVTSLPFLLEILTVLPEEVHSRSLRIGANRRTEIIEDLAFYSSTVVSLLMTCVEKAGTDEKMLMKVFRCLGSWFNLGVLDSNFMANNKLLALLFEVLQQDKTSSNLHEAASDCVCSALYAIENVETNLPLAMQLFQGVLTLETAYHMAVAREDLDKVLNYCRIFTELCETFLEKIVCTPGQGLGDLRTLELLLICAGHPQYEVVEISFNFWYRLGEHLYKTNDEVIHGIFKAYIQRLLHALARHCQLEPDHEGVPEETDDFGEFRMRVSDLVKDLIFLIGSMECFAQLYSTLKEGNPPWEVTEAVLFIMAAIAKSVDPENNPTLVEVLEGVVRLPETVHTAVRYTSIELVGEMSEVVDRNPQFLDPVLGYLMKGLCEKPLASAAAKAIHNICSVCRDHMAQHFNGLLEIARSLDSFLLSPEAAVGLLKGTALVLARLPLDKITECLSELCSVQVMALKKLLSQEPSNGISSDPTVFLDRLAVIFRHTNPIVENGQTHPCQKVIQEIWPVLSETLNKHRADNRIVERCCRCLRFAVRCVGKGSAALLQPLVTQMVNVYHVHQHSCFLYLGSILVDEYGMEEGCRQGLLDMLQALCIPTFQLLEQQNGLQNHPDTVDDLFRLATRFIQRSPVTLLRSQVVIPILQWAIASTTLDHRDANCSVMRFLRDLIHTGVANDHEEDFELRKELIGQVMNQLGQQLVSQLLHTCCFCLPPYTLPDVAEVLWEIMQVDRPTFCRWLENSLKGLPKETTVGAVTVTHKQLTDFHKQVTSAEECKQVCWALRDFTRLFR
Chain of UniProt Q16539 (whole entry, looked up): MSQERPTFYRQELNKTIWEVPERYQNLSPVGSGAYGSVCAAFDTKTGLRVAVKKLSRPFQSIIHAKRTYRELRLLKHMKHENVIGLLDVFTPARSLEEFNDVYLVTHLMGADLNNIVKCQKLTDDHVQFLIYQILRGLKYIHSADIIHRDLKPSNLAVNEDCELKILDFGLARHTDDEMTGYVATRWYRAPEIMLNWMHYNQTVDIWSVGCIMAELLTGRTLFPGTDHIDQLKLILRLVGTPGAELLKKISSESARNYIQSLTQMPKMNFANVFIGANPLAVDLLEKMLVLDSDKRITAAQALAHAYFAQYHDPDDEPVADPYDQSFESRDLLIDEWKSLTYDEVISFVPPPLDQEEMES
Chain of UniProt P07700 (whole entry, unmodified, looked up): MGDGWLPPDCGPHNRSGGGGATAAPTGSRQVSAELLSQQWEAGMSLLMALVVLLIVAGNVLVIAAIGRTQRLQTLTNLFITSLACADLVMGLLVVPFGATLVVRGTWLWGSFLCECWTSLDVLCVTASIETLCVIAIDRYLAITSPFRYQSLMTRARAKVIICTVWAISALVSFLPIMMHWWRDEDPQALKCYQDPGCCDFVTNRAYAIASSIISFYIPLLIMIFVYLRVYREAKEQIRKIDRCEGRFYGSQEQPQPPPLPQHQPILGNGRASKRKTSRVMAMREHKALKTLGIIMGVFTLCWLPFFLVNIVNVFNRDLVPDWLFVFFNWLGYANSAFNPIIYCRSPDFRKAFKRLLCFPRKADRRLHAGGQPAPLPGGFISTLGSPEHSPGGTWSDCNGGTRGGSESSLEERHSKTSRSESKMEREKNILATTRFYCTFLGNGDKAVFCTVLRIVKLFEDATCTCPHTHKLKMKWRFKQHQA

| SMILES | target or system | test | system | conditions | how to read | endpoint | value |
| --- | --- | --- | --- | --- | --- | --- | --- |
| CC[C@H](C)[C@H](NC(=O)[C@H](Cc1ccccc1)NC(=O)[C@H](CCC(=O)O)NC(=O)[C@H](CCCNC(=N)N)NC(=O)[C@H](C)NC(=O)[C@H](C)NC(=O)[C@H](CCC(N)=O)NC(=O)[C@H](CCC(=O)O)NC(=O)[C@H](CCC(=O)O)NC(=O)[C@H](CC(C)C)NC(=O)[C@H](Cc1ccc(O)cc1)NC(=O)[C@H](CO)NC(=O)[C@H](CO)NC(=O)[C@@H](NC(=O)[C@H](CC(=O)O)NC(=O)[C@H](CO)NC(=O)[C@@H](NC(=O)[C@H](Cc1ccccc1)NC(=O)[C@@H](NC(=O)CNC(=O)[C@H](CCC(=O)O)NC(=O)[C@H](C)NC(=O)CCc1c[nH]cn1)[C@@H](C)O)[C@@H](C)O)C(C)C)C(=O)N[C@@H](C)C(=O)N[C@@H](Cc1c[nH]c2ccccc12)C(=O)N[C@@H](CC(C)C)C(=O)N[C@H](C(=O)N[C@@H](CCCNC(=N)N)C(=O)NCC(=O)N[C@@H](CCCNC(=N)N)C(=O)N[C@@H](CCCCNC(=O)COCCOCCNC(=O)COCCOCCNC(=O)CC[C@H](NC(=O)CCCCCCCCCCCCCCCCC(=O)O)C(=O)O)C(=O)NCC(=O)NCC(=O)N[C@@H](CO)C(=O)N[C@@H](CCCCNc1c(NCCCCCN(O)C(=O)CCC(=O)NCCCCCN(O)C(=O)CCC(=O)NCCCCCN(O)C(C)=O)c(=O)c1=O)C(=O)O)C(C)C [zirconium-89 labelled] |  | ex vivo gamma counting | rat, colon content | subcutaneous, 3 nmol/kg, 24 h, added: [89Zr]-labelled peptide |  | tissue uptake | 0.24 %ID/g |
| CC(CCc1ccc(O)cc1)NCCc1ccc(O)c(O)c1 (stereo not shown) | ADRB1 (Meleagris gallopavo, UniProt P07700, A282L/C116L/F327A/F338M/M90V/R68S/Y227A) | CRE-SPAP reporter gene (cAMP), agonist | CHO cells expressing ADRB1 β6-m23 |  |  | EC50 | 575 nM |
| C/C(O)=C(\C#N)C(=O)Nc1cc(Br)ccc1Br | MAPK14 (Homo sapiens, UniProt Q16539) | thermal stabilization, binder, isothermal NanoLuc TSA | permeabilized HeLa, Nluc fusion |  |  | EC50 | 12500 nM |
| CC[C@H](C)[C@H](NC(=O)[C@H](C)NC(=O)[C@@H](NC(=O)[C@@H](NC(=O)[C@H](C)NC(=O)[C@H](CC(N)=O)NC(=O)[C@H](Cc1c[nH]c2ccccc12)NC(=O)[C@@H](NC(=O)[C@H](C)NC(=O)[C@@H](N)CO)C(C)C)[C@@H](C)O)[C@@H](C)O)C(=O)O | H2-D1 17 | H-2D stabilisation, flow cytometry | RMA-S TAP-deficient | overnight |  | EC50 | 2000 nM |
| CCCC[C@@H]1NC(=O)[C@H](Cc2ccc(O)cc2)NC(=O)[C@@H]2CCCN2C(=O)[C@H](CC(=O)O)NC(=O)[C@H](C)NC(=O)[C@H](Cc2ccccc2)NC(=O)[C@@H]2CSCCC(=O)N3CN(CN(C3)C(=O)CCSC[C@H](NC(C)=O)C(=O)N[C@@H](CC(C)(C)C)C(=O)N3CCC[C@H]3C(=O)N[C@@H](CCC(=O)O)C(=O)N[C@H](CCCCNC(=O)CCc3cn(CCOCCOCCOCCN(CCOCCOCCOCCC(=O)N[C@H]4CSCCC(=O)N5CN6CN(C5)C(=O)CCSC[C@H](NC(=O)[C@@H](CC(=O)O)NC(=O)[C@H](Cc5cccc7ccccc57)NC(=O)[C@@H]5CCCN5C4=O)C(=O)N[C@@H](CCSC)C(=O)N[C@@H](CCCCNC(=N)N)C(=O)N[C@@H](CC(=O)O)C(=O)N[C@@H](Cc4c[nH]c5ccccc45)C(=O)N[C@@H](CO)C(=O)N[C@@H]([C@@H](C)O)C(=O)N4CCC[C@H]4C(=O)N4C[C@H](O)C[C@H]4C(=O)N[C@@H](Cc4c[nH]c5ccccc45)C(=O)N[C@H](C(N)=O)CSCCC6=O)CCOCCOCCOCCn4cc(CCC(=O)NCCCC[C@H]5NC(=O)[C@H](CCC(=O)O)NC(=O)[C@@H]6CCCN6C(=O)[C@H](CC(C)(C)C)NC(=O)[C@@H](NC(C)=O)CSCCC(=O)N6CN7CN(C6)C(=O)CCSC[C@H](NC(=O)[C@H](Cc6ccc(O)cc6)NC(=O)[C@@H]6CCCN6C5=O)C(=O)N[C@@H](Cc5ccccc5)C(=O)N[C@@H](C)C(=O)N[C@@H](CC(=O)O)C(=O)N5CCC[C@H]5C(=O)N[C@@H](Cc5ccc(O)cc5)C(=O)N[C@@H](CCCC)C(=O)NCCSCCC7=O)nn4)nn3)C(=O)N3CCC[C@H]3C(=O)N[C@@H](Cc3ccc(O)cc3)C(=O)N2)C(=O)CCSCCNC1=O | Tumor necrosis factor receptor superfamily member 9/Nectin-4 | reporter gene, agonist | HT-1376 coculture with reporter cells |  |  | EC50 | 0.63 nM |
| CCCCCCCC(=O)N[C@H]1CCOC1=O | sdiA |  |  |  |  | EC50 | 2.9 nM |
| CC[C@H](C)[C@H](NC(=O)[C@H](C)NC(=O)[C@@H](NC(=O)[C@@H](NC(=O)[C@H](C)NC(=O)[C@H](CC(N)=O)NC(=O)[C@H](Cc1c[nH]c2ccccc12)NC(=O)[C@H](C)NC(=O)[C@H](CO)NC(=O)[C@@H](N)CO)[C@@H](C)O)[C@@H](C)O)C(=O)O | H2-D1 17 | H-2D stabilisation, flow cytometry | RMA-S TAP-deficient | overnight |  | EC50 | 25000 nM |
| CCCC[C@@H]1NC(=O)[C@H](Cc2ccc(O)cc2)NC(=O)[C@@H]2CCCN2C(=O)[C@H](CC(=O)O)NC(=O)[C@H](C)NC(=O)[C@H](Cc2ccccc2)NC(=O)[C@@H]2CSCCC(=O)N3CN(CN(C3)C(=O)CCSC[C@H](NC(C)=O)C(=O)N[C@@H](CC(C)(C)C)C(=O)N3CCC[C@H]3C(=O)N[C@@H](CCC(=O)O)C(=O)N[C@H](CCCCNC(=O)CCc3cn(CCOCCOCCOCCOCCOCCC(=O)N[C@H]4CSCCC(=O)N5CN6CN(C5)C(=O)CCSC[C@H](NC(=O)[C@@H](CC(=O)O)NC(=O)[C@H](Cc5cccc7ccccc57)NC(=O)[C@@H]5CCCN5C4=O)C(=O)N[C@@H](CCSC)C(=O)N[C@@H](CCCCNC(=N)N)C(=O)N[C@@H](CC(=O)O)C(=O)N[C@@H](Cc4c[nH]c5ccccc45)C(=O)N[C@@H](CO)C(=O)N[C@@H]([C@@H](C)O)C(=O)N4CCC[C@H]4C(=O)N4C[C@H](O)C[C@H]4C(=O)N[C@@H](Cc4c[nH]c5ccccc45)C(=O)N[C@H](C(N)=O)CSCCC6=O)nn3)C(=O)N3CCC[C@H]3C(=O)N[C@@H](Cc3ccc(O)cc3)C(=O)N2)C(=O)CCSC[C@@H](C(N)=O)NC1=O | Tumor necrosis factor receptor superfamily member 9/Nectin-4 | reporter gene, agonist | HT-1376 coculture with reporter cells |  |  | EC50 | 0.64 nM |
| COc1cc2c(Oc3ccc4[nH]c(C)cc4c3F)ccnc2cc1OCC1(N)CC1 |  | refers to: grade 3 blurred vision | paediatric high-risk refractory sarcoma | 8 mg |  | incidence of adverse event | 0% |
| COc1cc(Nc2ncc(F)c(Nc3ccc4c(n3)NC(=O)C(C)(C)O4)n2)cc(OC)c1OC | α-D-Glucosidase |  |  |  |  | IC50 | > 10000 nM |
| CCCC[C@@H]1NC(=O)[C@H](Cc2ccc(O)cc2)NC(=O)[C@@H]2CCCN2C(=O)[C@H](CCC(=O)O)NC(=O)[C@H](C)NC(=O)[C@H](Cc2ccccc2)NC(=O)[C@@H]2CSCCC(=O)N3CN(CN(C3)C(=O)CCSC[C@H](NC(C)=O)C(=O)N[C@@H](CC(C)(C)C)C(=O)N3CCC[C@H]3C(=O)N[C@@H](CCC(=O)O)C(=O)N[C@H](CCCCNC(=O)CCc3cn(CCOCCOCCOCCOCCOCCC(=O)N[C@H]4CSCCC(=O)N5CN6CN(C5)C(=O)CCSC[C@H](NC(=O)[C@@H](CC(=O)O)NC(=O)[C@H](Cc5cccc7ccccc57)NC(=O)[C@@H]5CCCN5C4=O)C(=O)N[C@@H](CCSC)C(=O)N[C@@H](CCCCNC(=N)N)C(=O)N[C@@H](CC(=O)O)C(=O)N[C@@H](Cc4c[nH]c5ccccc45)C(=O)N[C@@H](CO)C(=O)N[C@@H]([C@@H](C)O)C(=O)N4CCC[C@H]4C(=O)N4C[C@H](O)C[C@H]4C(=O)N[C@@H](Cc4c[nH]c5ccccc45)C(=O)N[C@H](C(N)=O)CSCCC6=O)nn3)C(=O)N3CCC[C@H]3C(=O)N[C@@H](Cc3ccc(O)cc3)C(=O)N2)C(=O)CCSC[C@@H](C(N)=O)NC1=O | Tumor necrosis factor receptor superfamily member 9/Nectin-4 | reporter gene, agonist | HT-1376 coculture with reporter cells |  |  | EC50 | 34 nM |
| CCCCCCCCCCCCCCCC(=O)N[C@H]1CCOC1=O | sdiA |  |  |  |  | EC50 | 800 nM |
| C[C@H]1CN(c2n[nH]c3nc(N[C@H]4CC[C@H](NS(=O)(=O)CCC(F)(F)F)CC4)ncc23)CCO1 | Transportin-3 (Homo sapiens, UniProt Q9Y5L0) | Kinobeads competition, refers to: TNPO3 |  | 0.032 µM, unit not given | relative to: vehicle | remaining binding | 1.16 |

Excerpt of the above:
| SMILES | target or system | test | system | conditions | how to read | endpoint | value |
| --- | --- | --- | --- | --- | --- | --- | --- |
| CCCCCCCC(=O)N[C@H]1CCOC1=O | sdiA |  |  |  |  | EC50 | 2.9 nM |
